Measurements gathered from unrelated publications.
Each numbered part is a random draw from the data of one study; scales do not carry over between parts.

Sample 1
Target: Histone acetyltransferase KAT6A, both winged helices, GST fusion (KAT6A, Homo sapiens, UniProt Q92794, residues 1-181)
Technique: protein binding microarray
Molecule type: double-stranded DNA, one strand shown
Matrix: in vitro
Tested at: not given
Notes: 8-mer, flanks averaged, mean of 2 arrays, mostly near background
Reference: not given
Reading: higher = stronger binding
Construct (chain): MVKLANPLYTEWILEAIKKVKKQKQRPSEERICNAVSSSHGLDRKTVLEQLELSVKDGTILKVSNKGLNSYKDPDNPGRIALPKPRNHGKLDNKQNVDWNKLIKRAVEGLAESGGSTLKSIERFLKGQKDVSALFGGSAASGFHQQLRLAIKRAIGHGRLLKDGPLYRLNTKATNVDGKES
Sequence | E-score
GGGACGAC | -0.0784
AATCAATG | 0.101
GTGCATTA | 0.0243
GGGGGTCA | -0.166
ATAACCTG | -0.306
TACTCCGA | -0.00886
GTAGTGTA | -0.132
CACTAGTA | -0.0877
ACGGCACA | 0.207
ACTCCGCC | 0.21
GAGGAGCC | -0.0733
AGTTTTAC | 0.044
CGAGCGCG | 0.354
TCGCAAGA | 0.028
CTGCTTTA | -0.0836
GCTACTAA | 0.0168
CAGCCGAA | 0.0614
ATTCTGTC | -0.0177
CTTTGGTC | -0.166
CTAGTGCC | 0.136
CGTTTTTC | 0.11

Sample 2
Target: Fragile X messenger ribonucleoprotein 1, C-terminal low-complexity region (Fmr1, Mus musculus, UniProt P35922)
Technique: RNA Bind-n-Seq
Molecule type: RNA
Matrix: in vitro
Tested at: 200 nM
Notes: whole 134-nt RNA, ends assumed
Together with: 150 mM KCl
Reference: input library
Reading: higher = stronger binding
All sequences stand within: GGGAGUUCUACAGUCCGACGAUC … UGGAAUUCUCGGGUGUCAAGG
Sequence | log2 enrichment
AGUCCUGUGCUACACAUCGUAUGUACCGAAUCAAAUUUUUAAAUUUAAAUUUUUAAAAAAGUAUUAUGUUACGCCGUUCGGAUCUGCACU | -1.25
CCUGUGCUACACAUCGUAUGUACCGAAUCAAACCCCCAAACCCCCCCAAACCCCCCCAAAAAAGUAUUAUGUUACGCCGUUCGGAUCUGC | -0.0519
UUAGGGAUGUGGCCAUAGAAUUCUCUCAGGAGGAGUGGAAAUGCCUGGACCCUGCUCAGAGGAUCUUAUACAGGGACGUGAUGUUGGAGA | 0.599
UCCUCAAGUCCUGUGCUACACAUCGUAUGUACCGAAUCGGUGGGUGGUGGGAAAGUAUUAUGUUACGCCGUUCGGAUCUGCACUUCCAGC | 0.0792
UCCUCAAGUCCUGUGCUACACAUCGUAUGUACCGAAUCGGUGGUGGUGGGGAAAGUAUUAUGUUACGCCGUUCGGAUCUGCACUUCCAGC | -0.0474
GUCCUGUGCUACACAUCGUAUGUACCGAAUCGGGAAAAAAAGGGUUUGGGUUUUUGGGAAAGUAUUAUGUUACGCCGUUCGGAUCUGCAC | -0.416
UGGGAGGUGGAUUUUGUUUAUUUUUUUAGCUCAUUUCCAGGGGUGGGAAUUUUUUUUUAAUUUGUGUCAUGAAUAAAGUUGUUUUUGAAA | 0.299
UCCUGUGCUACACAUCGUAUGUACCGAAUCAAACCCCCCCAAACCCAAACCCCCCCAAAAAAGUAUUAUGUUACGCCGUUCGGAUCUGCA | -0.191
CAAGUCCUGUGCUACACAUCGUAUGUACCGAAUCGGUGGUUUUUGGUUUUUUUGGAAAGUAUUAUGUUACGCCGUUCGGAUCUGCACUUC | -0.676
UCCUGUGCUACACAUCGUAUGUACCGAAUCGGGUUUUUUUGGGAAAAAGGGAAAAAGGGAAAGUAUUAUGUUACGCCGUUCGGAUCUGCA | -0.393

Sample 3
Target: PABPC1L2, full length, GST fusion (mouse, UniProt A0ABA7IW68)
Technique: RNAcompete
Molecule type: RNA
Matrix: in vitro
Tested at: 20 nM
Notes: 7-mer, probes averaged, single round
Reference: mean of 7-mers
Reading: higher = stronger binding
Target sequence (chain): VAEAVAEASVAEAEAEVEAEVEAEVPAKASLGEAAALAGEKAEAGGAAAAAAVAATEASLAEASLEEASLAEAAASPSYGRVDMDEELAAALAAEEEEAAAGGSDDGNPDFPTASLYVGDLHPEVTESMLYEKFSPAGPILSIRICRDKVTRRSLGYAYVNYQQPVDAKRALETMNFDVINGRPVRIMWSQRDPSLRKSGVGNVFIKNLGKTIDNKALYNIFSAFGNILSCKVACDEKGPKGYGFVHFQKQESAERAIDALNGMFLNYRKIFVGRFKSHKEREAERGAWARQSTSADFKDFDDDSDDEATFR
Sequence | 7-mer Z-score
UGUGCCG | -0.275
CGAAGGC | -0.0573
GGAAUCG | -0.11
AUAGCUA | -0.153
CGGCCCU | -0.302
CGCGGCU | -0.171
CUUCCGA | -0.188
GCGCUUA | -0.306
GAGAUAA | 0.499
AAGUCUG | 0.0297
GGCUUCA | -0.0971
GACGGUC | -0.347
AGGCGCA | 0.169
CGCUUAG | -0.315
GGAUACC | -0.0609
UAUUGCG | -0.0917
GAUUAAC | -0.126
GAGGAUG | 0.0696
UCUUUGA | -0.137
GUAGUAU | -0.264
UAAUCCA | -0.0536

Sample 4
Target: RNA binding protein fox-1 homolog 2, RRM domain, GST-SBP tag (RBFOX2, Homo sapiens, UniProt O43251-10, residues 100-194)
Technique: RNA Bind-n-Seq
Molecule type: RNA
Matrix: in vitro
Tested at: 365 nM
Notes: natural RNA segment, single round, ends assumed
Reference: no-protein control
Reading: higher = stronger binding
All sequences stand within: GGGAGUUCUACAGUCCGACGAUC … UGGAAUUCUCGGGUGCCAA
Target sequence (chain): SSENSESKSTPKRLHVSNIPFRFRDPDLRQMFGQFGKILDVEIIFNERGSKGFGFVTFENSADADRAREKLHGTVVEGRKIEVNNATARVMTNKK
Sequence | RBNS enrichment (R)
GGCAAGCUGCCAGACAACUCUGGCUCCUGUCAACCUUUUCACCUGGUGCCACAAAAGUAUUUCUGCUUUUUAGCCCUUUCUCUGCACCUCAACAAGAGAUAAAAAAAAAC | 0.694
CUUUUAUGAUCAGGGUGAAAUGUACUUCCUGAUGUAAUGAACCUAAUUUGAUUUCCAUUUUAAGGUGGUGUCUGUGCAGCUGGUGUCCCCGAUUCUGGCUGUCCUAUGUC | 0.409
GAGUUUACAAAGAAUAAGUAGAUUAUUGCCCAGUUAUUAACUAUUUUAAAUAAGAAAAUAAUCUACACAGUCAAGAUACCUAGCAAAUAAGUGGUGCCAUUGGAAUGUCA | 0.906
CUUAACCAUGUGCAAUUUGUCCUUUAUAAGCUUUGAGUAUCUUACAGCUUGCCUUUUUAAUGUUAGUCACAAUGUUUUUGUGGUUUGAAGUUUAGUUUAAUGUUAGUGCA | 3.07
UGUUUUAUAUGUUAAAAACAAAAUAAAGACAUCAACCAUUUCACAUAUAUUCUACUACUAAAGGUAUCAAUGGAACAUGAAGACGAGUAUUUAGGCAGAAGCAAAACAGG | 0.37
GAUCCUUCCUCUCCGAGGAUCCUCAUUAUAUACCUAGUAGGAAGGACUCUGAACUCAGAGCAGUCACACUUCCUUGGUUUUUUUAGGUUAGACAUUAACAAACAGCAGGA | 0.499
AUAUUAUGUAUAAAUAAAUAUAUUCAUAAUGAGUAUAUGUAAUGGAUAGCACAACGUUUGGAGACGUGACAAAUGCUCUUACCCUUUGGAGACAAAAGUCCUAUUUUCUG | 0.344
AAUGGUCAUCUAAAAUGAGAGAUUCUGGAUUUUAAUGCAGUUCAAAGUUGAGCUGUAUUUUUGUUGUUGAUUUAUCUGGAUUUUUUUUAAAGCCUUCUAAAACCCAGUGA | 0.455
UGCCCUCUACCACUAUAUGCCAAAAAUUGCUUCUCUAGUGCCAUUUUGAUAUUAUAUCUAGCUAUAAAUAAUACAUGACUAUCGUUUUCUAUUGAAUGUCAAAGACUUAC | 0.576
UCUAAUACCUCACUCAUUGACACGUGAGCAACACAAAGACAUUCACAAGGGCCGGCAUCACCAGACCAGCUGAGGACAACUCAGACUGACAGUUGGACAAACAUUGCGAC | 0.44
AGGUAGUUAAGUGUCACACAAGGUGUUGUUGCAAUGGCAUGACGGUGACCUGUUGACGUAACUAAGCCUUACAGCAAGGCAUGUGCCGCACGUGCUCCGUGGUACUUAGA | 4.28
GCCUCCCUAGUCUAUCUCAUUUCUCCUUCCCAGAAAGUCAGCGAGAUUCACCAUCACAGAACAGCAAGGGGCUUUAAGAUGGAUGUCUCAAUGGGGAGGGGCUGGAGACA | 0.561

Sample 5
Target: Sal-like protein 4, full length isoform A (SALL4, Homo sapiens, UniProt Q9UJQ4, residues 1-1053)
UniProt Q9UJQ4, sequence (whole entry, looked up): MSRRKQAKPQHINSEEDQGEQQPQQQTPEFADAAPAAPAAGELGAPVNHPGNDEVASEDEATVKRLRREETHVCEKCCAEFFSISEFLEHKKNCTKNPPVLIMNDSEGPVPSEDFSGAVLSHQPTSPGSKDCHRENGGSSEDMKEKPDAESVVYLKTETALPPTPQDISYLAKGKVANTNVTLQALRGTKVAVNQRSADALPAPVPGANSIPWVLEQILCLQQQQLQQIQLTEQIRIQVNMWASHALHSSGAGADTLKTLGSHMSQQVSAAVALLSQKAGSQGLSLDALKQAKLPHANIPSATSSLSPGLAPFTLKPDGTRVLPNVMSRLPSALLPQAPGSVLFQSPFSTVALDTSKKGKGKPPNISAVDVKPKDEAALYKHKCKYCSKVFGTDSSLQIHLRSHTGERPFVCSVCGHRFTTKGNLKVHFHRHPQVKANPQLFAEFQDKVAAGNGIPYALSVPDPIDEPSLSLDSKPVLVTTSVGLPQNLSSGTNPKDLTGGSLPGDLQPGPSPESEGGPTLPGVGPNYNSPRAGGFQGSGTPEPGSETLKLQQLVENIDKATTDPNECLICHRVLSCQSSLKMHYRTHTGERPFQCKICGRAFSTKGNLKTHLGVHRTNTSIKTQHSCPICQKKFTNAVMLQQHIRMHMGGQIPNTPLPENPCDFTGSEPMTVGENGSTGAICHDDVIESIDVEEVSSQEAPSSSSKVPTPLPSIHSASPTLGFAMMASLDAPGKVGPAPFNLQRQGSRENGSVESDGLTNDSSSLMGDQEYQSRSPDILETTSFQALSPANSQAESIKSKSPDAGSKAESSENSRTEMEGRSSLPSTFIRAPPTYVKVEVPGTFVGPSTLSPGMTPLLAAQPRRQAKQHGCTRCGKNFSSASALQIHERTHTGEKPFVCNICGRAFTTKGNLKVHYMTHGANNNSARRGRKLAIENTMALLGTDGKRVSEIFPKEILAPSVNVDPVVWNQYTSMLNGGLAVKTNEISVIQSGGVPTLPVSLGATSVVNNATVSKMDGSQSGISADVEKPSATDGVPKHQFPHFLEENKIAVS
Technique: universal PBM
Molecule type: double-stranded DNA, one strand shown
Matrix: in vitro
Tested at: 600 nM
Notes: 8-mer, flanks averaged, mean of replicates
Reading: higher = stronger binding
Sequence | E-score
AGCCTCTA | -0.232
TCCAATAA | 0.275
CCGAGTAC | -0.176
GGAGCTGA | -0.249
TCAAAACA | 0.298
AGTCTTGA | 0.00904
ACTCTAGG | -0.188
CGTGAGAG | -0.206
AAAGGGGT | -0.054
ACGCTAGG | -0.147
AGATCCCA | -0.0654
CCAGAAGC | -0.162
AGGGGTAC | -0.225
CACCAAAA | 0.175
GGGTGGCA | -0.369
ATAACCAC | 0.158
AAACAACT | 0.149
CTAACTGA | 0.0545
ATGGCATG | 0.0427
CATGGCCG | -0.271
AAACCGCT | -0.168
CGTTGGGA | -0.115
CCGCTTCG | -0.335
ACCCAGGG | -0.356
CTTCTCTC | -0.00905
